# Published values of several laboratories.
# Each numbered part is a random draw from the data of one study; scales do not carry over between parts.

# Block 1
# Target: TAR DNA-binding protein 43, full length, His tag (TARDBP, Homo sapiens, UniProt Q13148, residues 1-414)
# Method: RNA Bind-n-Seq
# Molecule type: RNA
# Matrix: in vitro
# Tested at: 20 nM
# Notes: 6-mer, flanks averaged, single round
# Added: 150 mM KCl
# Baseline: input library
# Reading: higher = stronger binding
Oligonucleotide,6-mer enrichment (R)
UACGGA,0.861
AAGUUC,0.549
AACUUG,0.632
AUAGGU,0.797

# Block 2
# Target: Interferon regulatory factor 5, full length, phosphomimetic (IRF5, Homo sapiens, UniProt Q13568-2, residues 1-514, K96S/S451D/S453D/S456D/S462D)
# Method: protein-binding microarray
# Molecule type: double-stranded DNA, one strand shown
# Matrix: in vitro
# Tested at: 250 nM
# Notes: 60-bp whole probe
# Added: salmon DNA 0.4 mg/ml
# Baseline: random background probes
# Reading: higher = stronger binding
Oligonucleotide,log fluorescence [z-score]
GCCTAGCACTTAGGACTGGGTTTCGGTAAGTGCTAGGTCTTGATTCGCTTGACGCTGCTG,6.5
GCCTAGCACCAGGTTTTGCTAAGTCAACTGGTGCTAGTCTTGATTCGCTTGACGCTGCTG,0.315
GCCTAGCACGACGGTCTCCTACTGCTGAAGTGCTAGGTCTTGATTCGCTTGACGCTGCTG,-0.304
GCCTAGCACGACGATCTCAGGCTCGAGACGTGCTAGGTCTTGATTCGCTTGACGCTGCTG,-0.334

# Block 3
# Target: Fragile X messenger ribonucleoprotein 1, C-terminal low-complexity region (Fmr1, Mus musculus, UniProt P35922)
# Method: RNA Bind-n-Seq
# Molecule type: RNA
# Matrix: in vitro
# Tested at: 200 nM
# Notes: whole 134-nt RNA, ends assumed
# Added: 150 mM LiCl
# Baseline: input library
# Reading: higher = stronger binding
# All molecules: 7-deaza-guanosine replaces G
Oligonucleotide,log2 enrichment
GGGAGUUCUACAGUCCGACGAUCUAACUUUAGAGGAGGAUCUGAUGGAUAUGGCAGUGGACGUGGAUUUGGGGAUGGCUAUAAUGGGCAUGGAGGAGGACCUGGAGGUGGCAAUGGAAUUCUCGGGUGUCAAGG,0.578
GGGAGUUCUACAGUCCGACGAUCUGGGAGGUGGAUUUUGUUUAUUUUUUUAGCUCAUUUCCAGGGGUGGGAAUUUUUUUUUAAUAUGUGCCAUGAAUAAAGUUGUUUUUGAAAUGGAAUUCUCGGGUGUCAAGG,0.361
GGGAGUUCUACAGUCCGACGAUCCUCAAGUCCUGUGCUACACAUCGUAUGUACCGAAUCGGAAAAAAAGGUGGAGGAAAGUAUUAUGUUACGCCGUUCGGAUCUGCACUUCCAUGGAAUUCUCGGGUGUCAAGG,-0.566

# Mixed results
Molecule,target,test,system,setting,scale,measurement,value
"PhoQ, residues 284 288 289 292 302 303 DDMDFR","PhoP, residues 12 14 15 18 19 NNFVT (Escherichia coli, UniProt P23836)","Sort-seq, measured: YFP reporter",E. coli,"PhoQ-PhoP variant library, added: 10 µM Mg2+","baseline: high Mg2+ state, higher = stronger signaling",fold induction,0.639

# A few entries again (block 2):
Oligonucleotide,log fluorescence [z-score]
GCCTAGCACGACGGTCTCCTACTGCTGAAGTGCTAGGTCTTGATTCGCTTGACGCTGCTG,-0.304
GCCTAGCACGACGATCTCAGGCTCGAGACGTGCTAGGTCTTGATTCGCTTGACGCTGCTG,-0.334
